Measured values pooled from the literature.
Parts stem from different laboratories: compare values within a part only.

Set 1 — cell line: yeast with cyclin E2-Cln2 chimera; read-out: cell growth; action: binder; technique: competitive growth deep sequencing; form: peptide; concentration: concentration not given; setting: peptide tiling library; direction: direction not given
Sequence	growth enrichment score
LRRQLSFSED	0.292
IVLICAKRSLCAAFSV	0.296
ALTMEALEDPSPELME	1.2
VLLKRLQDVVSERANH	0.181
AIRKMREDRWAVIAKM	1.19
IPDRSTKPVVFSPT	-0.527
KRCATPVIIDEILPSK	0.336
SAVPLILPQAPSGPSY	1.38
ESSQLTVQAEFDMSAI	0.127
EPRNLLSLFEDTLDPT	0.168
GQLVIPLDELTLDTSF	0.664
NARRSLNFGGSTGT	0.658
FREFEVEKQTAEETGL	1.22
KPITLDTTDFQESFVT	0.513
RKLHFEDEVT	0.603
PARRRLRLSVDEVSSP	0.0309
PLRKAKRARLCSSSSS	0.362
RRVLCFDS	1.38
SCCKRKLVVGNGPEGP	0.26
DTERAHSTLDEDLERW	1.04
TARRIFQEPTEPKTKA	0.976
DSDSDSEGGAAGGEAD	1.33
PAKRRLELGE	1.15
SSEVARHLLFQSHM	-0.118

Set 2 — technique: RNA Bind-n-Seq; form: RNA; medium: in vitro; concentration: 365 nM; baseline: no-protein control; direction: higher = stronger binding
Target: RNA binding protein fox-1 homolog 2, RRM domain, GST-SBP tag (RBFOX2, Homo sapiens, UniProt O43251-10, residues 100-194)
Setting: natural RNA segment, single round, ends assumed
All sequences stand within: GGGAGUUCUACAGUCCGACGAUC … UGGAAUUCUCGGGUGCCAA
Target sequence (chain): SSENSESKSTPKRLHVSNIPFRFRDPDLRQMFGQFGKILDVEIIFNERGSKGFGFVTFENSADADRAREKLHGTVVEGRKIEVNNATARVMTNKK
Oligonucleotide	RBNS enrichment (R)
AGCCCCUCUCGGGGACUCUGGGGGUGCCAUCCCCCACUCUUCUUCCAGCCACUCUCGGGCCCCACUCCCACAUCAUCUCAGAAACCCUUCAGCCCUCGCAACUCGCCCCU	0.956
GGCCCCAGCGGCCUGGGCGUUGGCUGAGCCGACGCUGGGGCUUCCAGAAGGCCCGGGGGUCUCCGAGGUGCCGGUUAGGAGUUUGAACCCCCCCCACUCUGCAGAGGGAA	0.326
UCUUCCAUGUUUGAGGGAAAGUCUUGCACUAUUGCAUAUAUUUUGGGGACACAGAUUUUCAUAGUUUCCAUUUUUGGGGGGCUUAAGGAUUUUUUUUUUUUCUGUUUGAA	2.69
AGGUAACAGUGAAAGCUUUUAAGCCUCUGAGCCUCGAGACUGGGGAGAUUGAGUUUAUACCCCCUAGUCUCUCACAUUCAAAUCUAGUAGCCUGUAACCACUUUUAAAUG	0.462
GAGUUCCUUCUCCUAAAGCUAAGGCCAGCCUCCAUCACAAAUGCCCAUAAAAUCUGGCUCGUCUUUGAUGAACAAUAAAUAUUUGUUGAACAAAUAAAUAACUGCCCUGC	0.417
CUGUUUGUUCCCACUUAUGUGAGUGACCCCAUCCAUCCAUGACCAGAGGAUUAUUUUCCUGCCUUGGCAGAGGAGGAGGAGUCAAGGGAGCAGGGCAGCUCUACCAGGCA	0.62
CUAGUAAGGGUUUUGAUCACACCAAGUUCUUUGUAUUGAGAAGUCUAGGGCAGAGCUCUGGGGGAUUGUUAUUUUACAUUACCUGGCCUAGAGUAGCAUAUUAGACAACA	0.498
CUCAGAUGUAACUGGUAAAGGCUGAUUUCUAAAUUUUCUGUAAUUGCAGCAACCUUUCUCUCCUGUCUACCCUUUUAGUUUACUGUAUGCCAUGGUUUUGUUUUGGUUAC	0.826

Set 3 — technique: protein binding microarray; form: double-stranded DNA, one strand shown; medium: in vitro; concentration: not given; baseline: not given; direction: higher = stronger binding
Target: Histone acetyltransferase KAT6A, winged helix 1, GST fusion (KAT6A, Homo sapiens, UniProt Q92794, residues 1-85)
Setting: 8-mer, flanks averaged, mean of 2 arrays, mostly near background
Residues (chain): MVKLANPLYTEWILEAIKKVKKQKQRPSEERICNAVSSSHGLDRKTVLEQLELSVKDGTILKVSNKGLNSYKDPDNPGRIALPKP
Oligonucleotide	E-score
CAGCGCAC	0.176
ATCGAGAG	-0.177
AAGTGTCG	-0.0695
ACCTCAAG	-0.279
AAAAGGGC	-0.117
ACGCTGCA	0.0599
ACGCGCAA	0.372
AGTACTCG	0.0158
AGTCAGAC	-0.13
CGTTGCTA	-0.114
AAGTTACA	-0.159
GGAGCAAA	-0.0769
CTAGTATC	-0.136
ATTCGTTA	-0.196
CCCCAATA	-0.219
AAAAGTGA	-0.0685
ATACTTCC	-0.0603
GGATTGAC	-0.0142
ACAGACCC	0.0122
ACGACAGT	-0.161
CTAACCTC	-0.128
TGAGCTCA	-0.0265
CCAGGGGC	-0.016

Set 4 — technique: RNAcompete; form: RNA; medium: in vitro; concentration: 20 nM; setting: 7-mer, probes averaged, single round; baseline: mean of 7-mers; direction: higher = stronger binding
Target: PABPC1L2, full length, GST fusion (mouse, UniProt A0ABA7IW68)
Residues (chain): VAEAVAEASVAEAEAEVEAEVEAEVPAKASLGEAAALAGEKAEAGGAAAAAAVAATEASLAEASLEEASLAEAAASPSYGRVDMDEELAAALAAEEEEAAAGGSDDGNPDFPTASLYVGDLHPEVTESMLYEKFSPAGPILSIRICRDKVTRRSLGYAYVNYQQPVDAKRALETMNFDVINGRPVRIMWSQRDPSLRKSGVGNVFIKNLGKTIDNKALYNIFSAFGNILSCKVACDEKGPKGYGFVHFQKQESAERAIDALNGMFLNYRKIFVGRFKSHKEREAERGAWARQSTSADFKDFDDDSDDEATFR
Oligonucleotide	7-mer Z-score
CUUUCUA	-0.34
ACGUUUC	-0.396
UAGUUGU	-0.3
CAGUGUG	-0.0283
GACGCUU	-0.298
UGGGGGA	0.506
CGAGGAC	0.12
UCCUUCA	-0.248
GUAAUCC	-0.157
GAGUUGC	-0.191
UACACGG	0.274
CGGGCGG	0.389
UAUGUGU	-0.376
ACUUGCA	-0.0409
UCAUCUC	-0.287
UAAAGUA	0.939
CCCAGAA	-0.012
GGUGCGG	0.202

Set 5 — technique: RNA Bind-n-Seq; form: RNA; medium: in vitro; concentration: 200 nM; setting: whole 134-nt RNA, ends assumed; with: 150 mM KCl; baseline: input library; direction: higher = stronger binding
Target: Ras GTPase-activating protein-binding protein 1, full length (G3BP1, Homo sapiens, UniProt Q13283)
UniProt Q13283, sequence (whole entry, looked up): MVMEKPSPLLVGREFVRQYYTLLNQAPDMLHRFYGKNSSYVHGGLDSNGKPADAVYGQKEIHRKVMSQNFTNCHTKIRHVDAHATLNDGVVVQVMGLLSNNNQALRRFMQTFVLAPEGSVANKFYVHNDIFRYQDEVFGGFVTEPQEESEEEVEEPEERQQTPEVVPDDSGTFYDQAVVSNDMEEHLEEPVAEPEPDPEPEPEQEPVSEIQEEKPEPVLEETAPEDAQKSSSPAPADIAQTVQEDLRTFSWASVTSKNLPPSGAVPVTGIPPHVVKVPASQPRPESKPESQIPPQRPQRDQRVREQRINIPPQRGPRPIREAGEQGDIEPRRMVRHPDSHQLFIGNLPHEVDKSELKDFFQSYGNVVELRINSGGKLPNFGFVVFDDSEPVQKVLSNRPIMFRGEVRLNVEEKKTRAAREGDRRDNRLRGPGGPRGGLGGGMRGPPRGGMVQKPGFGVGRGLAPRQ
All sequences stand within: GGGAGUUCUACAGUCCGACGAUC … UGGAAUUCUCGGGUGUCAAGG
Oligonucleotide	log2 enrichment
GUCCUGUGCUACACAUCGUAUGUACCGAAUCGGGGCCCCCGGGGCCCCCGGCCCCCGGGAAAGUAUUAUGUUACGCCGUUCGGAUCUGCA	-0.728
CCUCAAGUCCUGUGCUACACAUCGUAUGUACCGAAUCGGGUGGGAGGGAGGGAAAGUAUUAUGUUACGCCGUUCGGAUCUGCACUUCCAG	1.34
CCUGUGCUACACAUCGUAUGUACCGAAUCAAACCCCCCCAAACCCCCAAAUUUUUUUAAAAAAGUAUUAUGUUACGCCGUUCGGAUCUGC	0.101
ACCAUGCAGGUGGGCAUCUUUGGGAAGUGGGGCAAGGGGGGGAUAGGGAGUGGGGUAACACUUUGGGAACAGGUGGUCCCAGGUCGUUUC	1.32
CAAGUCCUGUGCUACACAUCGUAUGUACCGAAUCGGAAAGGAAAAAGGAAAAAGGAAAGUAUUAUGUUACGCCGUUCGGAUCUGCACUUC	-0.964
CAAGUCCUGUGCUACACAUCGUAUGUACCGAAUCGGGGAAAGGGGAGGGGUGGGGAAAGUAUUAUGUUACGCCGUUCGGAUCUGCACUUC	1.29
ACCAUGCAGGUGGGCAUCUUUGGGAAGUGGGGCAAGGGGGGGAUAGGGAGGGGGGUAACACUUUGGGAACAGGUGGUCCCAGGUCGUUUA	1.38
UGGGAGGUGGAUUUUGUUUAUUUUUUUAGCUCAUUUCCAGGGGUGGGAAUUUUUUUUUAAUAUGUGUCAUGAAUAAAGUUGUUUUUGAGA	0.768
CUCAAGUCCUGUGCUACACAUCGUAUGUACCGAAUCGGUUGGGGUUGGGGUUGGAAAGUAUUAUGUUACGCCGUUCGGAUCUGCACUUCC	-0.0254
